{"data": "Results collected from several papers", "note": "Numbered parts are unrelated; each lists some results of a single study."}
{"data": "Sample 1", "target": "Fragile X messenger ribonucleoprotein 1, C-terminal low-complexity region (Fmr1, Mus musculus, UniProt P35922)", "technique": "RNA Bind-n-Seq", "form": "RNA", "sample": "in vitro", "tested at": "200 nM", "notes": "whole 134-nt RNA, ends assumed", "added": "150 mM KCl", "relative to": "input library", "direction": "higher = stronger binding"}
{"Strand": "GGGAGUUCUACAGUCCGACGAUCCAAGUCCUGUGCUACACAUCGUAUGUACCGAAUCGGGAGGGUUUUUGGGUUUGGGAAAGUAUUAUGUUACGCCGUUCGGAUCUGCACUUCUGGAAUUCUCGGGUGUCAAGG", "log2 enrichment": 0.741}
{"Strand": "GGGAGUUCUACAGUCCGACGAUCUCCUGUGCUACACAUCGUAUGUACCGAAUCGGGGAAAAAGGGGAAAAAAAGGGGUGGGGAAAGUAUUAUGUUACGCCGUUCGGAUCUGCAUGGAAUUCUCGGGUGUCAAGG", "log2 enrichment": 0.656}
{"Strand": "GGGAGUUCUACAGUCCGACGAUCGUCCUGUGCUACACAUCGUAUGUACCGAAUCGGCCCCCGGGGCCCCCGGGGCCCCCGGGAAAGUAUUAUGUUACGCCGUUCGGAUCUGCAUGGAAUUCUCGGGUGUCAAGG", "log2 enrichment": -0.634}
{"Strand": "GGGAGUUCUACAGUCCGACGAUCUCCUCAAGUCCUGUGCUACACAUCGUAUGUACCGAAUCGGCGGCGGGGCGGAAAGUAUUAUGUUACGCCGUUCGGAUCUGCACUUCCAGCUGGAAUUCUCGGGUGUCAAGG", "log2 enrichment": -0.109}
{"data": "Sample 2", "target": "RNA binding protein fox-1 homolog 2, RRM domain, GST-SBP tag (RBFOX2, Homo sapiens, UniProt O43251-10, residues 100-194)", "technique": "RNA Bind-n-Seq", "form": "RNA", "sample": "in vitro", "tested at": "365 nM", "notes": "natural RNA segment, single round, ends assumed", "relative to": "no-protein control", "direction": "higher = stronger binding", "Target sequence (chain)": "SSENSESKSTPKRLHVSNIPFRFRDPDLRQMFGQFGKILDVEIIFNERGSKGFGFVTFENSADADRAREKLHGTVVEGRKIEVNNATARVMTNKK"}
{"Strand": "GGGAGUUCUACAGUCCGACGAUCUAUGCUCACUGGUCAUCACAUUCAGCUUAUUCUUACGUGCCAGUGAGGCCCUAAGGUCUCAGUGCAUAGCAUACCUGCCACUCUGGAUGUUUUCCUGGGCUUCAUAUCUGUGGAAUUCUCGGGUGCCAA", "RBNS enrichment (R)": 0.384}
{"Strand": "GGGAGUUCUACAGUCCGACGAUCCACAUGUGCAUGCCUGUUUCUUUUUGCCAGGGAGACAACUGAAUUUGGGGCAUUUUUCUACAAACACAGCCUCCUCUCCCCCUGUAUGGACUGGCUAUAACCAUAAGCCAUGGAAUUCUCGGGUGCCAA", "RBNS enrichment (R)": 5.67}
{"Strand": "GGGAGUUCUACAGUCCGACGAUCGACGGGCGGGACAGCAGGUCAGUGGAUCUUCACCGGAAGGUGCAGCUUCUCGGCAUCAGCGCAGCUGCACCACAGGCUGAGCUUACAGAGCUUCAGGCCCAGACUGGGGCUGGAAUUCUCGGGUGCCAA", "RBNS enrichment (R)": 0.267}
{"Strand": "GGGAGUUCUACAGUCCGACGAUCCCCAUGGGCCCUCGGGCCUGACCAAUCCAGACGAGGCAGAGAGCAGCAGCGACUCAAGGGCCGUGUGUACAUAUGUAAAUGAGAAAUAGACAUGUCAACAAGAUACAUUCUGGAAUUCUCGGGUGCCAA", "RBNS enrichment (R)": 0.508}
{"data": "Sample 3", "target": "PABPC1L2, full length, GST fusion (mouse, UniProt A0ABA7IW68)", "technique": "RNAcompete", "form": "RNA", "sample": "in vitro", "tested at": "20 nM", "notes": "7-mer, probes averaged, single round", "relative to": "mean of 7-mers", "direction": "higher = stronger binding", "Target sequence (chain)": "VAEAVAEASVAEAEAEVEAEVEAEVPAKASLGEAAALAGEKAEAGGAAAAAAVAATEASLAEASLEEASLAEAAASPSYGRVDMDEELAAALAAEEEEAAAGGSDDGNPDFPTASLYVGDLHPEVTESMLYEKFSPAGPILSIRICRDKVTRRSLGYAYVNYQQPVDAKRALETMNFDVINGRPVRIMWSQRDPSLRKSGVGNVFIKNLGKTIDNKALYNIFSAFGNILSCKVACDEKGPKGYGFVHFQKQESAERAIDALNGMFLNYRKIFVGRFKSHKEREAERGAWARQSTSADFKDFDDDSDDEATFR"}
{"Strand": "AGCUUUG", "7-mer Z-score": -0.383}
{"Strand": "GAACCUA", "7-mer Z-score": -0.0881}
{"Strand": "CUUAGAG", "7-mer Z-score": -0.144}
{"Strand": "CGCCUCC", "7-mer Z-score": -0.4}
{"data": "Single results of other studies"}
{"Substance": "PhoQ, residues 284 288 289 292 302 303 TLMATV", "target": "PhoP, residues 12 14 15 18 19 NHFIF (Escherichia coli, UniProt P23836)", "assay": "Sort-seq, refers to: YFP reporter", "system": "E. coli", "conditions": "PhoQ-PhoP variant library, added: 10 µM Mg2+", "scale": "relative to: high Mg2+ state, higher = stronger signaling", "endpoint": "fold induction", "result": 1.71}
